Published values gathered from unrelated publications.
Parts stem from different laboratories: compare values within a part only.

Set 1
Target: Interferon regulatory factor 5, full length, phosphomimetic (IRF5, Homo sapiens, UniProt Q13568-2, residues 1-514, S451D/S453D/S456D/S462D)
Technique: protein-binding microarray
Form: double-stranded DNA, one strand shown
Medium: in vitro
Concentration: 940 nM top
Setting: 60-bp whole probe
Together with: salmon DNA 0.4 mg/ml
Baseline: random background probes
Direction: higher = stronger binding
Constant ends, left off below: GCCTAGCAC … GTCTTGATTCGCTTGACGCTGCTG
Oligonucleotide | fitted relative affinity
TTAGAACTGAGTATCGACTAGTGCTAG | 1.97 z-score
TTGATTGTGGCTTTTTAATGGTGCTAG | 0.0069 z-score
TTAGATCTCAGTTTCAATTAGTGCTAG | 2.51 z-score
TCAATTCTCAGCCCTGCGACTGTGCTA | 0.305 z-score
TCAACTTTCTTTTTTTCACTGTGCTAG | 2.26 z-score
TTAGATATCGGGTATCGATGAGTGCTA | 2.02 z-score
TCATGTTTGAGTCTTCTACTGTGCTAG | -0.0636 z-score
TTAGGTTCCAGTTTCGATTAGTGCTAG | 8.34 z-score
GACGATATCGGACTGGGGACGTGCTAG | -0.141 z-score
GATTTTTTTCATATATATATGTGCTAG | 1.14 z-score
TTAGGACTAGGACTGGGTTAGTGCTAG | -0.854 z-score
GACGGTCTCGGTATCGGGGCGTGCTAG | 4.54 z-score
GACGGTATCCAACTGCTGACGTGCTAG | -0.425 z-score
GACGGTTTCGGTATCGGGAGGTGCTAG | 13.3 z-score
GACGGTTTTGGGTATCGGGACGTGCTA | 2.69 z-score
TTAGGACTGGGGTATCTGTTAGTGCTA | 0.456 z-score
GACGAAATCGGGTTTCGAGACGTGCTA | 2.14 z-score
TCACCTTTCTGCCTCAGACTGTGCTAG | 1.1 z-score

Set 2
Target: Prothrombin, mature alpha-thrombin (F2, Homo sapiens, UniProt P00734)
Technique: aptamer microarray, sandwich
Form: DNA with 2'F-ANA
Medium: in vitro
Concentration: 200 nM
Setting: whole 15-mer aptamer, many near background
Together with: Cy3 exosite-II aptamer, 400 nM
Direction: higher = stronger binding
Oligonucleotide: GGTTGGTGTGGTTGG
Modification | mean fluorescence intensity [a.u.]
2'F-ANA at 1 3 5 6 7 8 9 11 12 13 15 | 78.2
2'F-ANA at 7 9 13 15 | 428
2'F-ANA at 1 3 4 5 9 10 11 13 | 43.1
2'F-ANA at 1 2 5 9 10 11 12 15 | 49.8
2'F-ANA at 2 3 4 5 7 9 10 11 12 | 79.7
2'F-ANA at 1 3 4 9 10 13 15 | 57.7
2'F-ANA at 1 2 5 12 15 | 112
2'F-ANA at 4 6 8 9 10 12 14 15 | 67.2
2'F-ANA at 2 3 8 9 12 14 | 504
2'F-ANA at 1 4 6 9 12 13 15 | 143
2'F-ANA at 2 3 4 5 7 10 11 12 13 14 | 48.2
2'F-ANA at 1 4 5 7 8 11 12 15 | 91.2
2'F-ANA at 1 4 6 7 9 10 14 15 | 47.9
2'F-ANA at 2 3 5 6 13 | 83.7
2'F-ANA at 1 2 6 7 9 10 11 12 | 57.5
2'F-ANA at 3 5 6 7 9 13 14 | 60.6
2'F-ANA at 1 2 6 8 10 12 14 | 46.8
2'F-ANA at 1 2 8 9 10 11 | 50.1
2'F-ANA at 1 2 3 4 5 6 8 12 13 | 78.1
2'F-ANA at 1 2 4 6 8 9 10 11 14 | 49.7
2'F-ANA at 1 2 4 7 10 11 14 15 | 47
2'F-ANA at 3 4 5 6 7 8 13 15 | 70.4
2'F-ANA at 4 6 8 9 11 12 13 15 | 273
2'F-ANA at 1 2 3 6 12 | 428
2'F-ANA at 3 8 12 14 | 729

Set 3
Target: RNA binding protein fox-1 homolog 2, RRM domain, GST-SBP tag (RBFOX2, Homo sapiens, UniProt O43251-10, residues 100-194)
Technique: RNA Bind-n-Seq
Form: RNA
Medium: in vitro
Concentration: 365 nM
Setting: natural RNA segment, single round, ends assumed
Baseline: no-protein control
Direction: higher = stronger binding
Residues (chain): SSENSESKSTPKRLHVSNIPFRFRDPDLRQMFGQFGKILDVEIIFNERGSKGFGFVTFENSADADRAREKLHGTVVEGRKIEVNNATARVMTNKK
Oligonucleotide | RBNS enrichment (R)
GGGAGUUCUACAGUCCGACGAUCAGGAGAACCUGCAGCAUGGUGGGAAAUGGGGACACUACCUCCCAGGAUGACUGUGUGAGCAAAGAGCGCAGCUCCUCCAGGUGACCACAUGUGGCCGCUGUCUGUGCCAGUGGAAUUCUCGGGUGCCAA | 5.67
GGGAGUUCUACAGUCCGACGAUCGAAGAUGGGUGCAUGAGAAUCUUGGCUCAGCCAAAGCCCCUUCAUGGAAAUACAAGCCAUAAAAUUCAAAAGGUGUCAAAAGACCUUGGCUUGUUUGGGGGUUUGUUCCCUGGAAUUCUCGGGUGCCAA | 5.67
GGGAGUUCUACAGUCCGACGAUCUGUCAUGCUGGGCCCUUCAUUUGAUCUGGGACAUAGCAUCACAGCAGUCAGGGCACCUGGAUUGUUCUGUUAUCGAUAUUGUUUCUUGUAGCGGCCUGUUGUGCAUGCCAUGGAAUUCUCGGGUGCCAA | 7.99
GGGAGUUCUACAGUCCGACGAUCACCUUUUUGUUAAAUAAAAUUUGUACUCAAAUGAUGAUGUCACUGUUUUUAAUGUGCAGGUAUUGAAUUAUAUGGUCUGACUUAAAUCAUAACUAGACUUGAGUGGGCUGUGGAAUUCUCGGGUGCCAA | 0.453
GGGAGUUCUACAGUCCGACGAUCUCUGCCUGGCCCAGGGGGGCUGCCCCCAUUCCUGGAGCCCAGGGGCCCAGCUUGCAAUUGCUAGUGUCAGGAGUGACUUGUAGCUUUGCCUUGGUUGUGAAAUGAUUUCAUGGAAUUCUCGGGUGCCAA | 0.566
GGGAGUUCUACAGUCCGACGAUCGAACAAUGCUUGGAAAUAUUAUGUGACUUUUUUGUUUGUUUGUUUUAGGAGGAUGGUGUAUGGUGGGGGCAAUAAAUGAGGUUUUUUGCAUUCCAAGGAAAUGGCAUAUGUGGAAUUCUCGGGUGCCAA | 1.66
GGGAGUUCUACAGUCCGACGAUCUGUACUAGCAUCCGCAUUCCUCCCUCAGGGCAUGGUCUCAUCUCUGCAUCAGGAAUUUACCAGGAGAUGGAAAAGAACAGAAAAAGCCCUGAGCCUGUGUGUGUUCCUUCUGGAAUUCUCGGGUGCCAA | 0.877
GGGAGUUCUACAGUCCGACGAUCUGUUGUCCUUAAAAGAUCAGGGCAGUGACUUUCACAGCAGGACUUUGACUCCCACAUUGGUUGAUCACACAAAACUGUCAGCAUUUGGGUAAUCUGAUGUAUAGUUGUUUUGGAAUUCUCGGGUGCCAA | 0.782
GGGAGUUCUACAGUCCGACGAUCCAAUGCCUGGACCUGUCCACCUGAGAGGCCCCUGGGGCCUCCCCAGCUGCUGGCCAGACCCUGGCGCUGCCACAGUCCUGGCACUGCCCAAGGCCAUACCUGCCUAGCCCUGGAAUUCUCGGGUGCCAA | 0.192
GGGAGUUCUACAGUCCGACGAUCACAACCUACCCAUCAUCCCUAGUGUGUCCCGUCUCCUCCUGCCACCUGUCUGUAUUAUUCUGACCCAGGGGAGUCAGUCACUGUGGGGCCUCCUUCCUCUGCUGGUAUACUGGAAUUCUCGGGUGCCAA | 0.593
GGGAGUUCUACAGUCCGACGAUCUGUUGGAAAUAAAACACGUCCUAGCUGAACCCUUACUGUCCAGGAGGUUCCGUGUGGAGGUGGCACUGGGCCGGGCCUCCCUCUCAGGCUCCUUUGCUGCCCACUUGUAAUGGAAUUCUCGGGUGCCAA | 0.281
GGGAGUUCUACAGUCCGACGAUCGCCUUCUUUCCCUUGGGGUCUCUGGAAGAUCCUAGCAGACUUUGCCUGUGGGCCUGCUCAGCAUGACUUCCAGGACCCCACUGUUCUGGACUGACAUCCCAGGUGUCACAUGGAAUUCUCGGGUGCCAA | 4.7

Set 4
Target: Phosphate system positive regulatory protein PHO4, full length, GST-tagged (PHO4, Saccharomyces cerevisiae, UniProt P07270, residues 1-312)
Technique: competition protein-binding microarray
Form: double-stranded DNA, one strand shown
Medium: in vitro
Concentration: 2 µM
Setting: whole 60-bp probe, lowest competitor level
Together with: Cbf1 competitor, 0.05 µM
Direction: higher = stronger binding
Residues (chain): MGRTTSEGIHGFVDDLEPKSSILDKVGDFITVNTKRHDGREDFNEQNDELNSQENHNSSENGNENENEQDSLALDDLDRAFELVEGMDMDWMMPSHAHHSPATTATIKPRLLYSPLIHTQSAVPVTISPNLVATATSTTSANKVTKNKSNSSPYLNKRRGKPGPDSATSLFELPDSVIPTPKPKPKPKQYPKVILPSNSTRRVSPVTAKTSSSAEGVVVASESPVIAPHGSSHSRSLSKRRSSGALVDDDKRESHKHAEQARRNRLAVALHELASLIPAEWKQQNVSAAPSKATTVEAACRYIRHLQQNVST
Oligonucleotide | fluorescence intensity [a.u.]
AAAGCGGTAATTTGGGGAGTGGGTGCAGATATCTATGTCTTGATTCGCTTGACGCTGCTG | 4300
CGTCCTAGTGATTGCTATGTGGGTGCCATGAGGAAGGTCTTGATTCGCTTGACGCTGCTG | 7550
AAAGCGGTAATTTTTCACGTGAAGTCAAATATCTATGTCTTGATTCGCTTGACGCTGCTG | 9740
ACCCCTTTTCAAAAGGTCGTGATTGTTTTCGTAAGAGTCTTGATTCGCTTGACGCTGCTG | 4830
ATTTTCCTCAATCTGCTCGTGTAAGTGTCGGCCCGGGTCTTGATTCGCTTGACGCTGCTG | 7170
TAGGCAGAGTGCTGGCACGATGATAGCGAGGGGTTGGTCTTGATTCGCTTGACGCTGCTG | 8410
CATTTAAAGCTAATGAAATGTACCTCTCGCTTCATTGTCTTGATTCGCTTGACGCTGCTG | 3490
CGTCCTAGTGATTGTCAGGTGGGTGCCATGAGGAAGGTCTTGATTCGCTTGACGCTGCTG | 8740
GGGAATCCAGGCAGACACGTGCTACCGAGACTTTAAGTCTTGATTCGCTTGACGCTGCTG | 15100
AAAGCGGTAATTTGTCACGTTACTTCACATATCTATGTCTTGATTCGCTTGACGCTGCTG | 8450
TTCATCAATGAGACTCTCGTGAAGCTTACCTTGGAGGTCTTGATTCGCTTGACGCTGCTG | 4090
GAGCCCCGCCCCTGCCACGTGGGCTTGTTTGGGTCTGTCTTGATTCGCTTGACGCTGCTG | 15400
CATACCCAACCTTGTAGGGTGGGTGAAGATATTTGTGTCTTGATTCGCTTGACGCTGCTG | 4330
TTCGAAAAAAATACCCACGTGCTTTTTGGAAATGAAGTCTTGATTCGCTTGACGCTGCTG | 21400
GTCTTGTCTCATTGCTAAGTGGGTGTCCCCACTTCAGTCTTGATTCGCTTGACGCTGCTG | 4400
GGTGCGAAGTATCACCACGTTTCTTTTTCATCTCTTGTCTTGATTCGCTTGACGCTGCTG | 13500
AGTGGTTGCGTTTGCCACGTACGAAAAGTTGTTACCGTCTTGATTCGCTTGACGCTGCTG | 5770
CTTCTGTAAATTTGTCACTCTACTTGACGCGCCCCGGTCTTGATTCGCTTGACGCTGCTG | 3160
AAATTACTAAGTTGTTTCGTGGGTGACGCCGTATGAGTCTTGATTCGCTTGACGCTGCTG | 4560
TTGTTGGAAAGAACCGTCGTGGGTATAACCAGACAAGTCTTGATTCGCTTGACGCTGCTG | 6390
CCAAAGCAGATTTGTCACCTGGAATAGAGTTTTTGTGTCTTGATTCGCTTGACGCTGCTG | 3040
AACTGCAGGGTCTGGCACGGCAACACAAGGCTATTGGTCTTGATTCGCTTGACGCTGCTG | 4960
CAATGTTTTTAAAAGCACGTGACTCGAATGTTACCCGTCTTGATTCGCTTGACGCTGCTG | 17800
TGAATGCACCTATTGCACGCTGCGAAGCTAACGTAGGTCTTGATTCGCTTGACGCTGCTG | 8580
CTTTCCCGATCTTGAACGGTGGGTGTAGCACATTTGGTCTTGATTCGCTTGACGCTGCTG | 4290

A few entries again (set 1):
Oligonucleotide | fitted relative affinity
TTGATTGTGGCTTTTTAATGGTGCTAG | 0.0069 z-score
TTAGATCTCAGTTTCAATTAGTGCTAG | 2.51 z-score
TCAATTCTCAGCCCTGCGACTGTGCTA | 0.305 z-score
TCAACTTTCTTTTTTTCACTGTGCTAG | 2.26 z-score
TTAGATATCGGGTATCGATGAGTGCTA | 2.02 z-score
TCATGTTTGAGTCTTCTACTGTGCTAG | -0.0636 z-score
TTAGGTTCCAGTTTCGATTAGTGCTAG | 8.34 z-score
GACGATATCGGACTGGGGACGTGCTAG | -0.141 z-score
